Experimental data pooled from the literature.
A part holds a random share of what one study measured. Positions count from the first letter of the parent shown.

Series 1
Target: RING finger protein unkempt homolog, zinc fingers 1-6, SBP tag (UNK, Homo sapiens, UniProt Q9C0B0, residues 30-357)
UniProt Q9C0B0, sequence (30-357, looked up): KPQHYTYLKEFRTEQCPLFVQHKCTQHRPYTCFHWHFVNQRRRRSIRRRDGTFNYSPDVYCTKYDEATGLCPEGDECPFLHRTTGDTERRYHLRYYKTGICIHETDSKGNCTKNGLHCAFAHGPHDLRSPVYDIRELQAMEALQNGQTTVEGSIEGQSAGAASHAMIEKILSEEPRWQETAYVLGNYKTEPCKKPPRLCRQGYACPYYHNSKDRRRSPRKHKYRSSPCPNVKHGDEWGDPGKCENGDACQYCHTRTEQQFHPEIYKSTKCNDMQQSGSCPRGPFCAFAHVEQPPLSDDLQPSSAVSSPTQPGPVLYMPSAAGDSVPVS
Method: RNA Bind-n-Seq
Form: RNA
Sample: in vitro
Concentration: 100 nM
Setting: RNA with constant flanks, vertebrate orthologous sites, ends assumed
Reference: input RNA pool
Reading: higher = stronger binding
Shared flanks, not repeated: GGGAGUUCUACAGUCCGACGAUC … CAACAGAGGAUUGAGCAUCA
Oligonucleotide | bound/input enrichment
UCCCAGCACUCUGAUAAAAAGUGUGGACUGGUUGCUUGUAUUUUCCUUAUUCUUUUUAAUUAGUUUUAUUAUGUAUGCUACCAUUCGAACUGAGAGCAUUCGGUGGCUAAUUCCAGGACA | 2 ratio
UCCCGCACCUGCGGGGGCGUGACCGAGGCUGAAGCAUCCACCUGCGCUGUGAGGGGUCCACGGUAUUUCUUUUUUUGCUGCCUCAGGCCCCAGAGCCUUCAAGCAACAGCGGCAGUAGAU | 0.151 ratio
UAAUUCAAUGGUUGAGGGUUCAGAACUCAAAAAGGUUCGCUCCAACUCUAGGAUUUAUCAUAGGUACUUUUUACUGGAUGCUGACAUGCAGAGCCUAAGGUGGGAGCCAUCUAAGAAGGA | 0.305 ratio
CGAGUCUUCCACUUAGGGUCGGCCUCAAAUUUAUAGGAGUUAUGACAAUUGUAUAUCUACUUAGGUUGAGUUUGAUAUUUUUUUAUUCGCCUGUAAAUAAAGAUGGCAUCUUCUAUAUUA | 0.336 ratio
GUGUCUUGGUUUGGGGUAGAGGGGAGGGAGGGGCAGGACUGUGGAAUCUCUAGAGUGUAUUGGUAGAUAAGGGUGCACAGUUAGUUGUAAGUGGGCCUUUAUGUUAAAAACCUCGGGGGG | 1.11 ratio
CACAUCUGGUGAUAUUUGGCCUGGCCUUUCAGCUUACGAUAAUAGUCCCAGAUCACCUCAUAGUCCUUCACCGAUUGCUACACCACCUAGUCAGAGUUCAUCUUGCUCUGAUGCCCCCAU | 0.818 ratio
CAGCUUAGCGAACACAGUUUUGGAGAAAUAAUAAUAAUAAUAUUUAAAAAAGAAAGAGCCUGAUUGGUAUCUUUUUGUCUAACUGUUUUUCAAAGAGAAAGUUUAAAAGAAAAAAAAAGA | 0.414 ratio
GAUUUGGACCUUGGAGCCAAACCAGGGAGCUAGCGAAAGUAAAGCAGACUUGUAAAAUUAUAGCCAUAUGCAGAUGCACAACAAUGGUACUACCACUAGAGCUGUGUUAAAGUAUUUAUA | 0.487 ratio
UCAGUCCCCUGGGCCGGGACAGAUUUUUUUUAACGUCUUGAAACUUAAACUCUGUGCUUGUAGGAUACUGUAACCUUUUUGUCUUUUUUUUUUUUUUUUUUUUUAAACCUCCACCUCCAG | 2.82 ratio
GUUUUUUUGUUUUGCACAUGACAGUGUGUGUAUGGAUCUGAGGAAGGAGGUGGGGUGCUGGUGCAGUUGGCCUCCAGUGCCCCCCACCCUCACCACCCCACCUGGUAUCUUUGCCAUGUU | 0.272 ratio
GUUGUGACCCAUUUAACAUACACAAAAAACUAGCCAAAAAAAAUUUGCAUGUAAUUGACUUAGAUGAUGCCACUUUUCUGAGUGCAAAAUUUGGAAGACAGCUUGUACCUGGUUGGAAAC | 1.62 ratio

Series 2
Target: ABI1, truncated, D143A, DHFR fusion (Arabidopsis thaliana)
Method: DHFR PCA, deep sequencing
Sample: yeast
Setting: methotrexate growth selection, single substitutions
Added: (+)-ABA 0.39 µM
Reference: wild-type fitted maximum
Reading: higher = stronger binding
Starting sequence: PYL1, truncated, DHFR fusion (Arabidopsis thaliana); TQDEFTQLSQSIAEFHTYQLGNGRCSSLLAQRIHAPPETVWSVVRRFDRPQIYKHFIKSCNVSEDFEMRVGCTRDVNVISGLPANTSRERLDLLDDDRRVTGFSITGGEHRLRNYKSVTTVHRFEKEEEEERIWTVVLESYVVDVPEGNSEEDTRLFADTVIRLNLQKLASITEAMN; partner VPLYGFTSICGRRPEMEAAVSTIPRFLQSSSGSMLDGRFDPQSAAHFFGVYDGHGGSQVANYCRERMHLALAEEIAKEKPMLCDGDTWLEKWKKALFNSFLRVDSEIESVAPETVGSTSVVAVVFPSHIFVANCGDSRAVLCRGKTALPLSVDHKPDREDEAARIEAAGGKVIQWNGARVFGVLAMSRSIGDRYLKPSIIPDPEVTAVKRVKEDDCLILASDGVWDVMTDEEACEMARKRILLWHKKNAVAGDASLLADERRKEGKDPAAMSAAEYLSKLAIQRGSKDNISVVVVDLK
Substitution | relative binding score [%]
R69Y | 11.6
R46S | 9.94
T160Q | -12.5
V76H | -8.89
V78C | 38.7
D95W | -4.75
V137L | -4.08
C60Q | -10.5
T160N | 3.58
Q31F | -3.23
H110W | 84
G102K | -9.17
D95Y | 3.12
E67D | 41.2
T173F | -17.2
V142P | -4.57
V137M | -10.8
S59A | 27.1
S150A | 20.2
R90D | -17.2
C72T | 9.83
P50N | -9.79
E4T | 27.6
F15L | -1.46
E152C | 6.28

Series 3
Target: CCNB3, cyclin fold, Cln2 fusion (human)
Method: yeast growth competition, sequencing
Sample: yeast
Setting: weak parent motif
Reference: not given
Reading: higher = stronger binding
Starting sequence: PKMYT1 docking peptide (human); SFEPRNLLSLFED
Substitution | normalised enrichment score
SFEPRNLLSLFEM [D13M] | 0.568
SFEPRNLLSPFED [L10P] | 0.346
SFEPRNLLSLFEG [D13G] | 0.76
SFEPRNLLSLFEK [D13K] | 0.359
SFSPRNLLSLFED [E3S] | 0.381
SFEPRNLLSLFEW [D13W] | 0.373
SFEPRNLLFLFED [S9F] | 0.62
YFEPRNLLSLFED [S1Y] | -0.126
SFEPRALLSLFED [N6A] | 0.717
SFEPRNLLSLPED [F11P] | 0.167
SFEPRNLLSLFET [D13T] | 0.371
SFEPRNLLSIFED [L10I] | 1.03
SFEYRNLLSLFED [P4Y] | 0.318
SFESRNLLSLFED [P4S] | 0.243
SFEPRNLLSLFGD [E12G] | 0.457
SFEMRNLLSLFED [P4M] | 0.549
SFEPRNLASLFED [L8A] | 0.45
SFEPRKLLSLFED [N6K] | 0.485
SFEPRILLSLFED [N6I] | 0.663
SFEPRNMLSLFED [L7M] | 0.405
SFEPRNLLSLFEA [D13A] | 0.857
SFEPRNLLSHFED [L10H] | 0.648
SFEPRNLLSGFED [L10G] | 0.652
SFEPRNCLSLFED [L7C] | 0.666
SFEPRNLLGLFED [S9G] | 0.365

Series 4
Target: Ras GTPase-activating protein-binding protein 1, full length (G3BP1, Homo sapiens, UniProt Q13283)
UniProt Q13283, sequence (whole entry, looked up): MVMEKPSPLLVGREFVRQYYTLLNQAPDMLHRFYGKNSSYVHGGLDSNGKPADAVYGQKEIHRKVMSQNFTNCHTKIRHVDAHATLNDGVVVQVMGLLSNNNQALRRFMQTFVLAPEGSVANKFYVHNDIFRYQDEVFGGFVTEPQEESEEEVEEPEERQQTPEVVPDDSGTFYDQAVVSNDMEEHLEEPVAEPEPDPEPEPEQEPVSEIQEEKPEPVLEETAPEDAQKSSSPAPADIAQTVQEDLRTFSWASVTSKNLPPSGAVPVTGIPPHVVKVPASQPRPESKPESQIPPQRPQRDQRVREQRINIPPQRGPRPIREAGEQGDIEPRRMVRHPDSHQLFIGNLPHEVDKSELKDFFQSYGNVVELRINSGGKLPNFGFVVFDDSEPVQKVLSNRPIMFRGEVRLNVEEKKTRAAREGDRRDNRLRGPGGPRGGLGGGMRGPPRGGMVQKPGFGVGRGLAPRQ
Method: RNA Bind-n-Seq
Form: RNA
Sample: in vitro
Concentration: 200 nM
Setting: whole 134-nt RNA, ends assumed
Added: 150 mM LiCl
Reference: input library
Reading: higher = stronger binding
Library: 7-deaza-guanosine replaces G
Shared flanks, not repeated: GGGAGUUCUACAGUCCGACGAUC … UGGAAUUCUCGGGUGUCAAGG
Oligonucleotide | log2 enrichment
GCAGGAAGUAAAAACAAAUGGAAAUGCUUCGGAUAGUGGAAAGGGUGGGGGUUGCUAAGGAAAGGGUGGGAUGGGAGUGGGUAAAGAGUU | 0.164
AACUGGAAGAACAGACCCGUAGGGCUCUGGAACUUGAGCAGGAACGGAAGCGUGCCCAGAGCGAGGCUGAAAAGCUGGCCAAGGAGCGUC | -0.796
UCAAGUCCUGUGCUACACAUCGUAUGUACCGAAUCGGGUGGGUUUUUGGGUGGGAAAGUAUUAUGUUACGCCGUUCGGAUCUGCACUUCC | 0.0739
CACAGACAACACGCACCCACACAGACACAGAGGGAAGGGGAAAGGAUGGGGACAGGGUGCACAGCAGGGCGGGGUAGGACCCCAGCCCCU | -0.864
CUCAAGUCCUGUGCUACACAUCGUAUGUACCGAAUCGGAGGAGGUUUUUUUGGAAAGUAUUAUGUUACGCCGUUCGGAUCUGCACUUCCA | -0.237
CUGUGCUACACAUCGUAUGUACCGAAUCGGGAAAAAAAGGAAAAAAAGGGAAAAAAAGGGGAAAGUAUUAUGUUACGCCGUUCGGAUCUG | 0.0263
AGUCCUGUGCUACACAUCGUAUGUACCGAAUCGGGGUUUGGGGAGGGGAAAAAGGGGAAAGUAUUAUGUUACGCCGUUCGGAUCUGCACU | 0.449
AAGUCCUGUGCUACACAUCGUAUGUACCGAAUCGGGGUUUUGGGUUUUGGUUUUGGAAAGUAUUAUGUUACGCCGUUCGGAUCUGCACUU | -1.12
GUCAAGAAAGAUCUUAAGACUGGUCAUUCAAAGGGGUUUGGCUUUGUUCGUUUUACGGAAUAUGAAACACAAGUGAAAGUAAUGUCACAG | -1.93
GAAAUUAUGGAAGUGGAAAUUACAAUGAUUUUGGAAAUUAUAACCAGCAACCUUCUAACUACGGUCCAAUGAAGAGUGGAAACUUUGGUG | -2.56
GCAGGAAGUAAAAACAAAUGGAAAUGCUUCGGAAAAUGGCAGGGGUGGGGGUUGCUAAGGAAAGGGUGGGAUGGGAGUGGGUAAAGAGUU | -0.0787

For quick reference, copied from above (series 3):
Substitution | normalised enrichment score
SFEPRNLLSLFEK [D13K] | 0.359
SFSPRNLLSLFED [E3S] | 0.381
SFEPRNLLSLFEW [D13W] | 0.373
SFEPRNLLFLFED [S9F] | 0.62
YFEPRNLLSLFED [S1Y] | -0.126
SFEPRALLSLFED [N6A] | 0.717
SFEPRNLLSLPED [F11P] | 0.167
